Experimental data pooled from the literature.
Protocols differ between the studies behind these lines. ± marks the error that the study gave.

| SMILES | system | conditions | intrinsic clearance |
| --- | --- | --- | --- |
| C[C@@H]1CN(CC(=O)N2CC(C)(C)c3nc(CO)c(Cc4ccc(F)cc4)cc32)[C@@H](CN2CCOC[C@H]2C)CN1 | microsomes, male mouse liver, CD-1 | 1 µM | 18 ± 3.8 µL/min/mg |
| CCn1cc2c(N3CCC(c4ccccn4)C3)nc(-c3ccccn3)nc2n1 (stereo not drawn) | mouse liver microsomes | – | 0 µL/min/mg protein |
| O=C1O/C(=C\c2cc(F)ccc2OCCN2CCOCC2)c2cc(Cc3cccc(F)c3)[nH]c(=O)c21 | rat liver microsomes | extrapolated in vivo | 31.7 mL/min |
| N=C(CC(O)c1cc2c(F)cc(F)cc2c2cc(C(F)(F)F)ccc12)Nc1ccc(F)c(F)c1 (stereo not drawn) | pooled human liver microsomes | 1 µM, 60 min, pH 7.4 | 9.4 µL/min/mg |
| C=CC(=O)N1CC2(CCN(c3nc4c(c(-c5c(C)ccc6[nH]ncc56)c3C#N)CCC(C)(C)C4)C2)C1 | human liver microsomes | – | > 399 µL/min/mg |
| Nc1nc(N)c(OCCCOc2ccccc2CCC(=O)O)c(C2CCCCC2)n1 | mouse liver microsomes | 0.5 µM, 48 mg protein/g liver | < 0.5 mL/min/g liver |
| O=C1c2ccccc2CCN1CCCCN1CCN(c2ccccn2)CC1 | mouse liver microsomes | 0.5 µM | 7.7 mL/min/g |
| CCC1=C(CC)/C(=C/NC2CCCCC2)N=C1c1ccc(Br)[nH]1 | human liver microsomes | 1 µM, pH 7.4 | -8.35 µL/min/mg |
| O=c1ccc2ccc(O)cc2o1 | rat liver microsomes | – | 573 µL/min/mg protein |
| CCC1=C(CC)/C(=C/NC23C[C@H]4C[C@@H](C2)C[C@@H](C3)C4)N=C1c1ccc(Cl)[nH]1 | mouse liver microsomes | 1 µM, pH 7.4 | -22.5 µL/min/mg |
| O=C(Cc1ccc2ccccc2c1)Nc1cc(C2CCC2)[nH]n1 | mouse liver S9 | – | 24.7 µL/min/mg protein |
| CCC1=C(CC)/C(=C/NC2CCCCCCC2)N=C1c1ccc(Cc2ccc(OC)cc2)[nH]1 | human liver microsomes | 1 µM, pH 7.4 | -10 µL/min/mg |
| CCc1nc(N)nc(N)c1OCCCOc1ccccc1CCC(=O)O | mouse liver microsomes | 0.5 µM, 48 mg protein/g liver | < 0.5 mL/min/g liver |
| O=C(NCCN1CCCC1)c1cc(-c2ccc(CN3CCOCC3)cc2)nc2ccc(F)cc12 | rat liver microsomes | – | ≤ 0.7 mL/min/g |
| O=C(O)Cc1ccccc1Nc1c(Cl)cccc1Cl | human liver microsomes | 1 µM | 150 µL/min/mg |
| C=CC[C@@H]1/C=C(\C)C[C@H](C)C[C@H](OC)[C@H]2O[C@@](O)(C(=O)C(=O)N3CCCC[C@H]3C(=O)O[C@H](/C(C)=C/[C@@H]3CC[C@@H](O)[C@H](OC)C3)[C@H](C)[C@@H](O)CC1=O)[C@H](C)C[C@@H]2OC | pooled human liver microsomes | – | 0.81 mL/min/mg protein |
| CCC1=C(C)/C(=C/NC23C[C@H]4C[C@@H](C2)C[C@@H](C3)C4)N=C1c1ccc(CC)[nH]1 | mouse liver microsomes | 1 µM, pH 7.4 | -19.1 µL/min/mg |

| SMILES | system | conditions | intrinsic clearance |
| --- | --- | --- | --- |
| Nc1nc(N)c(OCCCOc2ccccc2CCC(=O)O)c(-c2ccccc2)n1 | human liver microsomes | 39.7 mg protein/g liver | 0.43 mL/min/g liver |
| Cc1ccc2c(c1)nc(/C=C/c1cccc3cccnc13)n2-c1ccccc1 | rat liver microsomes | 1.5 µM | 143 mL/min/kg |
| C#C[C@]1(O)CC[C@H]2[C@@H]3CCc4cc(O)ccc4[C@H]3CC[C@@]21C | human liver microsomes | additional to UGT1A1 | 119 µL/min/mg |
| CCOc1ccc2ccc(=O)oc2c1 | human hepatocytes | scaled to liver | 205 mL/min/kg |
| C[C@]12C[C@@]34C=CC(=O)[C@@](C)(CCC(=O)Nc5c(O)ccc(C(=O)O)c5O)[C@@H]3[C@H](C[C@@H]1C4)O2 | mouse liver microsomes | 1 µM, pH 7.4, 37 °C, with: NADPH | 13.6 µL/min/mg |
| CCC1=C(CC)/C(=C/NC2CCCCCCC2)N=C1c1ccc(-c2ccc(OC)cc2)[nH]1 | mouse liver microsomes | 1 µM, pH 7.4 | -46.6 µL/min/mg |
| C[C@@H]1CN(CC(=O)N2CC(C)(C)c3ncc(Cc4ccc(F)cc4)cc32)[C@@H](CN2CCOC[C@H]2C)CN1 | Sprague Dawley rat liver microsomes, male | 1 µM | 19 µL/min/mg |
| COc1ccc(-c2nc(N)nc(N)c2OCCCOc2ccccc2CCC(=O)O)cc1 | human liver microsomes | 39.7 mg protein/g liver | < 0.4 mL/min/g liver |
| COc1cc2[nH]c(C)c(-c3cccnc3)c(=O)c2cc1Cl | human liver microsomes | 1 µM | 11 µL/min/mg |
| CCc1ccc(C2=N/C(=C\NC3CCCCCCC3)C(C)=C2C)[nH]1 | human liver microsomes | 1 µM, pH 7.4 | -1.16 µL/min/mg |
| O=C1O/C(=C\c2cc(F)ccc2OCCN2CC[C@@H](F)C2)c2cc(Cc3cccc(F)c3)[nH]c(=O)c21 | rat liver microsomes | – | 155 mL/min/g protein |
| CCOC(=O)c1ccc(N)cc1 | human liver microsomes | – | 83 µL/min/mg |
| Clc1cncc(OC[C@@H]2CN(CCN3CCc4ccccc43)CCO2)c1 | mouse liver microsomes | 0.5 µM | 25 mL/min/g |
| Cc1cc2c(c(=O)[nH]1)C(=O)O/C2=C\c1cc(F)ccc1OCCN1CCOCC1 | rat liver microsomes | extrapolated in vivo | 117 mL/min |
| Nc1nc(N)c(OCCCOc2ccccc2CCC(=O)O)c(CCCCO)n1 | mouse liver microsomes | 0.5 µM, 48 mg protein/g liver | < 0.5 mL/min/g liver |
| O=C(c1ccc(F)cc1)C1CCN(CCn2c(=O)[nH]c3ccccc3c2=O)CC1 | dog liver microsomes | – | 44.2 mL/min/kg |

For quick reference, copied from above:
| SMILES | system | conditions | intrinsic clearance |
| --- | --- | --- | --- |
| Cc1ccc2c(c1)nc(/C=C/c1cccc3cccnc13)n2-c1ccccc1 | rat liver microsomes | 1.5 µM | 143 mL/min/kg |
| C=CC(=O)N1CC2(CCN(c3nc4c(c(-c5c(C)ccc6[nH]ncc56)c3C#N)CCC(C)(C)C4)C2)C1 | human liver microsomes | – | > 399 µL/min/mg |
| CCC1=C(C)/C(=C/NC23C[C@H]4C[C@@H](C2)C[C@@H](C3)C4)N=C1c1ccc(CC)[nH]1 | mouse liver microsomes | 1 µM, pH 7.4 | -19.1 µL/min/mg |
| N=C(CC(O)c1cc2c(F)cc(F)cc2c2cc(C(F)(F)F)ccc12)Nc1ccc(F)c(F)c1 (stereo not drawn) | pooled human liver microsomes | 1 µM, 60 min, pH 7.4 | 9.4 µL/min/mg |
| O=C(O)Cc1ccccc1Nc1c(Cl)cccc1Cl | human liver microsomes | 1 µM | 150 µL/min/mg |
